Assay results gathered from unrelated publications.
Values joined by “and” are separate records of one study, mostly repeats; a detail may differ. ± gives the spread as reported.
Adhesin FmlH lectin domain: Adhesin FmlH, lectin domain (Escherichia coli, UniProt Q1RBS0)
MAL12: Alpha-glucosidase MAL12 (MAL12, Saccharomyces cerevisiae S288c, UniProt P53341)
Chain of UniProt P53341 (whole entry, looked up): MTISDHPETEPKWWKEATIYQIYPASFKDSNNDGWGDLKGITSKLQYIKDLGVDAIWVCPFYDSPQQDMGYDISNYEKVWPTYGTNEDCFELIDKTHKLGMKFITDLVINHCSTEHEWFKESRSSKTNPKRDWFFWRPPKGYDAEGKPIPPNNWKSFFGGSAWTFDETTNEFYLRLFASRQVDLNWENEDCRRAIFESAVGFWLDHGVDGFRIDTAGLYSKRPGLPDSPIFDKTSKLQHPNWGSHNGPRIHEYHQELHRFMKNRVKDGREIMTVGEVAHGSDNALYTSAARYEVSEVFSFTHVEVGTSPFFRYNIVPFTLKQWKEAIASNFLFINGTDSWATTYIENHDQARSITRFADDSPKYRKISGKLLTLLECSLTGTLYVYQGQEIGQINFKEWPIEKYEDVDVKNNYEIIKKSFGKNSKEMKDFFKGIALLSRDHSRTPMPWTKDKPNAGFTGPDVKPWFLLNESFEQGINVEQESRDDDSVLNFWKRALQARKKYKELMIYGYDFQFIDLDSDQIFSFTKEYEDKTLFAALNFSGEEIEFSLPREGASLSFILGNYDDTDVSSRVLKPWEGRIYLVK
PLG: Plasminogen (PLG, Homo sapiens, UniProt P00747)
Chain of UniProt P00747 (whole entry, looked up): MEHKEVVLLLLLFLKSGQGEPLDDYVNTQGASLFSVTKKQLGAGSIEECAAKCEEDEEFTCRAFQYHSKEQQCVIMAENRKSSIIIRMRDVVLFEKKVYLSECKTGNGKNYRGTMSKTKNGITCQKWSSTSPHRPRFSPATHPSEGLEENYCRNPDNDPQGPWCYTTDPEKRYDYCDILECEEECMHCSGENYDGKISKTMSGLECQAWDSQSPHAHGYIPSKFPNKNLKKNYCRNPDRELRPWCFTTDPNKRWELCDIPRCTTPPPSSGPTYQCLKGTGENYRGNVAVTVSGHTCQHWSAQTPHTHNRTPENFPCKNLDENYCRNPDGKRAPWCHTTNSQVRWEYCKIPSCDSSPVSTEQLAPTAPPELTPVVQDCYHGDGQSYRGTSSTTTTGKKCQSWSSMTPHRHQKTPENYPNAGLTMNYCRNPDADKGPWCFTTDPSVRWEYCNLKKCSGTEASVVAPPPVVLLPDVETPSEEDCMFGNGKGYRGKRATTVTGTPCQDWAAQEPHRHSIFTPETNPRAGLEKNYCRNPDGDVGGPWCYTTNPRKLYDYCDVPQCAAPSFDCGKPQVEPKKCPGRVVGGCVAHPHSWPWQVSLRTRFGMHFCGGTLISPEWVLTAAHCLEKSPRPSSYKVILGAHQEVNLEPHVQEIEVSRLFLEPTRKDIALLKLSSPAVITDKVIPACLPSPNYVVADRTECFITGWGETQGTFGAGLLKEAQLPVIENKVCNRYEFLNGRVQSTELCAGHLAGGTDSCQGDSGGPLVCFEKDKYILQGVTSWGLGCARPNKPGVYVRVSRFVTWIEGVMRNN
PTGS1: Prostaglandin G/H synthase 1 (PTGS1, Ovis aries, UniProt P05979)
Chain of UniProt P05979 (whole entry, looked up): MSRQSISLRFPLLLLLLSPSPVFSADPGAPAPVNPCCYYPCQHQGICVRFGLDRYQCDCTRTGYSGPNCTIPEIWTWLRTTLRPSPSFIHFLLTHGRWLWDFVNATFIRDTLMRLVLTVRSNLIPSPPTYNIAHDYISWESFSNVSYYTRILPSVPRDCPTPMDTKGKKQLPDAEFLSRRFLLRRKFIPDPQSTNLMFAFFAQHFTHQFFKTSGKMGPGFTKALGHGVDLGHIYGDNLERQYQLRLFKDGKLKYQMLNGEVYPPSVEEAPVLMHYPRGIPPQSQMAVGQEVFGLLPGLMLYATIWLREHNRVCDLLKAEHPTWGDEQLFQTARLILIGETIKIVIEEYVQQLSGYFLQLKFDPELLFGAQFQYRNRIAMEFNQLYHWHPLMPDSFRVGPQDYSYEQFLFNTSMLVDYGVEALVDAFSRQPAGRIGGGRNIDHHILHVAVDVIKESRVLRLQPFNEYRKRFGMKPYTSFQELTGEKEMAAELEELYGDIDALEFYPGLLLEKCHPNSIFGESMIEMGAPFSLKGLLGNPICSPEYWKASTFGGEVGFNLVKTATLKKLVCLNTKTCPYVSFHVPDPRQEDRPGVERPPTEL
USP51: Ubiquitin carboxyl-terminal hydrolase 51 (USP51, Homo sapiens, UniProt Q70EK9)
Chain of UniProt Q70EK9 (whole entry, looked up): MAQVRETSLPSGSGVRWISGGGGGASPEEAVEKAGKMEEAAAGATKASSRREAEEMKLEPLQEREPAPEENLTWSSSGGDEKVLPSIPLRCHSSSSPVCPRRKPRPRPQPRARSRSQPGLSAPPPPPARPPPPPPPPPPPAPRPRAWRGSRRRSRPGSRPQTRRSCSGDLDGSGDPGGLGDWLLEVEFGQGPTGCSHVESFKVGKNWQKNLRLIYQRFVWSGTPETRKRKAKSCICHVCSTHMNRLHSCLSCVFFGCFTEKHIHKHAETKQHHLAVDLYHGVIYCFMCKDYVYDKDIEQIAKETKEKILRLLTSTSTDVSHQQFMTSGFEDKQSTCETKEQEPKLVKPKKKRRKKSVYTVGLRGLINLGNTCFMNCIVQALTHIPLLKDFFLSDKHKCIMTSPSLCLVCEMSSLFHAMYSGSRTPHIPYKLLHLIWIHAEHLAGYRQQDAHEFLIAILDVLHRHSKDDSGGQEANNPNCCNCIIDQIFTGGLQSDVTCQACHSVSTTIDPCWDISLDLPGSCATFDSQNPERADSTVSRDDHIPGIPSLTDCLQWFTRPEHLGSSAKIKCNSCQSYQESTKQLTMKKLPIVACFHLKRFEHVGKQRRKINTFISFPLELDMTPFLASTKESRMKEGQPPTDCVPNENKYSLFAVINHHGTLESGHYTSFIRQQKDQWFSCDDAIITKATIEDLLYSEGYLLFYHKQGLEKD
SETD2: Histone-lysine N-methyltransferase SETD2 (SETD2, Homo sapiens, UniProt Q9BYW2)
Chain of UniProt Q9UM07 (whole entry, looked up): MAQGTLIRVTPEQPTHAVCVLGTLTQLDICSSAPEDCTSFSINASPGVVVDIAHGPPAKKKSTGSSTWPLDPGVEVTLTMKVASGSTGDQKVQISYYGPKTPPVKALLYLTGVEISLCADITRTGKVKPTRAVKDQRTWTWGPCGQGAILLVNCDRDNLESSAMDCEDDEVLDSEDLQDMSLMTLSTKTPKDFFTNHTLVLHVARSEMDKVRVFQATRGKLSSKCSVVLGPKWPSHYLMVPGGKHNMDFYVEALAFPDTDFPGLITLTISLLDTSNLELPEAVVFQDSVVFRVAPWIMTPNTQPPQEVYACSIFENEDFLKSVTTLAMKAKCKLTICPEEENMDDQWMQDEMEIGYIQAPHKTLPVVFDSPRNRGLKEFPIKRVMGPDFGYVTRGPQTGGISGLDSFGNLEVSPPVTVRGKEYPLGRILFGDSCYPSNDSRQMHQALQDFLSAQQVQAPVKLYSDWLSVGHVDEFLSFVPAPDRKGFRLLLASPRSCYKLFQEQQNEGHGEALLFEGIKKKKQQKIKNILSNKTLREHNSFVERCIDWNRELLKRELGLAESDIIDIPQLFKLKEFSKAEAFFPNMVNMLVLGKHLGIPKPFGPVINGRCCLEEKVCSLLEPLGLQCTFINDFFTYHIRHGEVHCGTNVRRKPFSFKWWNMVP
Chain of UniProt P09619 (whole entry, looked up): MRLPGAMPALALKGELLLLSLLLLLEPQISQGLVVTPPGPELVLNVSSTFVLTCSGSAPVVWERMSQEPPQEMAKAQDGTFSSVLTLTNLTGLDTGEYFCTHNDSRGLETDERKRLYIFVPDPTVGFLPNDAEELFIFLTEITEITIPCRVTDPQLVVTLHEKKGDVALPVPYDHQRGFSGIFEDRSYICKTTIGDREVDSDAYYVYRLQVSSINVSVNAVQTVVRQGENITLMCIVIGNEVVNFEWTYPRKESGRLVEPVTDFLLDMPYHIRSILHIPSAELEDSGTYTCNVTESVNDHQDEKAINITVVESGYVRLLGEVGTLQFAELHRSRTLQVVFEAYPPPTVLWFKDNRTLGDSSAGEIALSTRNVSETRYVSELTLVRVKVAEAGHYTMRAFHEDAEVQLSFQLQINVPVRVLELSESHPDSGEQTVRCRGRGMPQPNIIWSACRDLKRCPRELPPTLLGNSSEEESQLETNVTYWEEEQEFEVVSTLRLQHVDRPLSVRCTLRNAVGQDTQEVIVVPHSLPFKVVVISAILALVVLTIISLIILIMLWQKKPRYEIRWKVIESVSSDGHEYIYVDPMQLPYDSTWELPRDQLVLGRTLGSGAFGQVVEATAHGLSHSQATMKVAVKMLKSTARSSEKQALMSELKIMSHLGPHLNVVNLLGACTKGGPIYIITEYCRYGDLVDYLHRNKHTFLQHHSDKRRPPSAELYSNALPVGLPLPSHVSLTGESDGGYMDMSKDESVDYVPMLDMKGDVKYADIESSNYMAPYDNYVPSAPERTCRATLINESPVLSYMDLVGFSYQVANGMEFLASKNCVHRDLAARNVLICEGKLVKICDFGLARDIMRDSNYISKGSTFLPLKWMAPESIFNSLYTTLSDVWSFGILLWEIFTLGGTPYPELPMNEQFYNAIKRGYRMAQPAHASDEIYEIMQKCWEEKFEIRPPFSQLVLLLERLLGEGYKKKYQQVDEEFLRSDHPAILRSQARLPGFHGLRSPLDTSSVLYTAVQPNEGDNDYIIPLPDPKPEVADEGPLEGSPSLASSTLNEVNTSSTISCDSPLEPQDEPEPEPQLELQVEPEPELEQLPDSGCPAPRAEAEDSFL
Chain of UniProt Q86WV6 (whole entry, unmodified, looked up): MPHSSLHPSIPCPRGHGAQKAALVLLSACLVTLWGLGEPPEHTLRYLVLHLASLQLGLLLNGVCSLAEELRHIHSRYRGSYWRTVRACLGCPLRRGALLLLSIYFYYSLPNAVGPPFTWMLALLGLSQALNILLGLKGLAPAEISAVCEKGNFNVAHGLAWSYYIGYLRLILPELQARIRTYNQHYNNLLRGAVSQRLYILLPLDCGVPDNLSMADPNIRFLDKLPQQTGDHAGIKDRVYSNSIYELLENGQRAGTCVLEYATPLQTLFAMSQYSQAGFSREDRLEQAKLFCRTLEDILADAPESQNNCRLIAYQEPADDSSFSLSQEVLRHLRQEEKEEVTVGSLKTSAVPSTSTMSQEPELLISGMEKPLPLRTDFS

Structure (SMILES) | target | assay | system | conditions | inhibition
Cc1ccc(-c2nn(-c3ccc(S(C)(=O)=O)cc3)cc2/C=N/N=C2/NC(=O)CS2)cc1 | EGFR (Homo sapiens, UniProt P00533, L858R) | kinase activity, inhibitor |  | 10 µM | 88.2%
Cc1c(C)c2ccc(O[C@@H]3O[C@H](CO)[C@H](O)[C@H](O)[C@H]3O)cc2oc1=O | Adhesin FmlH lectin domain | binding to desialylated mucin, ELISA competition | UPEC UTI89 | 10 µM, together with: desialylated bovine submaxillary mucin | 19.8 ± 3.8%
COCC(=O)N1CCc2cc(-c3csc(NC(=O)c4cc(OC)cc(OC)c4)n3)ccc21 | PTGER4 (Homo sapiens, UniProt P35408) | ligand displacement, radioligand |  | 10 µM | 2%
Cc1cc(C)n(Cc2c(O)ccc3ccc(=O)oc23)n1 | MAL12 | inhibitor |  | 25 µM | 20.2%
C/C1=C\CC/C(C)=C/CC(C)(C)/C=C/C1 | Trpv1 (Rattus norvegicus, UniProt O35433, S512A/T550A/Y511A) | ion current, inhibitor, outside-out patch clamp |  | 100 µM, triple vanilloid-site mutant, together with: pH 5.5 activation | 93 ± 2%
COc1cc(-c2cnn3ccc(NCCN(C)C)nc23)cc(OC)c1OC | crk3, with CYC6 (Leishmania mexicana, UniProt O15851) | IMAP fluorescence polarisation |  | 30 µM, with L. major CYC6 | 3%
OC[C@H]1O[C@@H](Oc2ccc3ccccc3c2)[C@H](O)[C@@H](O)[C@H]1O | Adhesin FmlH lectin domain | binding to desialylated mucin, ELISA competition | UPEC UTI89 | 10 µM, together with: desialylated bovine submaxillary mucin | 14.6 ± 3.1%
O=C1c2sc(-c3ccc(N4CCC(F)C4)nc3F)nc2CCN1c1cccnc1 (centres unmarked) | PTGFR (Homo sapiens, UniProt P43088) | ligand displacement, radioligand |  | 1 µM | -22%
N#Cc1ccccc1O[C@H]1O[C@H](CO)[C@H](O)[C@H](O)[C@H]1O | Adhesin FmlH lectin domain | binding to desialylated mucin, ELISA competition | UPEC UTI89 | 100 µM | 17.8 ± 6.3%
C[C@H](NC(=O)[C@H](CC(=O)NCC(C)(C)C)NC(=O)C(=O)c1c[nH]c2ccccc12)C(=O)NCc1ccc(F)cc1F | PLG | enzyme activity, inhibitor |  | 100 µM | 5%
CC(C)Cc1ccc(-c2nn(-c3ccc(S(C)(=O)=O)cc3)cc2C=NN=c2[nH]c(-c3ccc(Br)cc3)cs2)cc1 | PTGS1 | enzyme activity |  | 10 µM | 68.6%
COc1ccc(C2CC(=O)N(CC(=O)Nc3ccc(F)cc3)c3ccccc3S2(=O)=O)cc1OC (centres unmarked) | USP51 | enzyme activity, inhibitor |  | 1 µM | 3.8 ± 1.1%
OC[C@H]1O[C@@H](Oc2ccccc2Cl)[C@H](O)[C@@H](O)[C@H]1O | Adhesin FmlH lectin domain | binding to desialylated bovine submaxillary mucin, inhibitor, ELISA competition | UPEC UTI89 | 1 µM | 8 ± 4%
COc1ccccc1C1NCCc2cc(O)c(O)cc21 (centres unmarked) | MAL12 | enzyme activity, inhibitor |  | 100 µM, DMSO solvent, together with: pNPG substrate | 48.71 ± 0.34%
COc1ccccc1O[C@@H]1O[C@H](CO)[C@H](O)[C@H](O)[C@H]1O | Adhesin FmlH lectin domain | binding to desialylated bovine submaxillary mucin, inhibitor, ELISA competition | UPEC UTI89 | 1 µM | 10 ± 4.3%
CCOC(=O)NCc1ccc(O[C@@H]2O[C@@H](C)[C@H](O)[C@@H](O)[C@H]2O)cc1 | MAL12 | inhibitor |  | 100 µg/mL, 0.4167 h, together with: p-nitrophenyl glucoside substrate | 25.9 ± 2.34%
N#Cc1ccc(O[C@@H]2O[C@H](CO)[C@H](O)[C@H](O)[C@H]2O)cc1 | Adhesin FmlH lectin domain | binding to desialylated mucin, ELISA competition | UPEC UTI89 | 10 µM, together with: desialylated bovine submaxillary mucin | 19.2 ± 4.8%
O=C1CO[C@H](CNC(=O)C2(c3ccc(Cl)cc3)CC2)CN1C1Cc2ccccc2C1 | CXCR6 (Homo sapiens, UniProt O00574) | β-arrestin recruitment, antagonist |  | 1 µM | 13%
Nc1ccc(O[C@@H]2O[C@H](CO)[C@H](O)[C@H](O)[C@H]2O)cc1 | Adhesin FmlH lectin domain | binding to desialylated mucin, ELISA competition | UPEC UTI89 | 10 µM, together with: desialylated bovine submaxillary mucin | 9.8 ± 3.9%
CC(=O)O[C@@]1(C)CN(Cc2ccccc2)[C@H]2C[C@@H]1CC(=O)[C@@H]2C | Mu-type opioid receptor (Cavia porcellus, UniProt A0ACM8Q262) | binding, radioligand binding | guinea pig brain membranes | 1 µM, together with: [3H]DAMGO | 16%
Cc1ccccc1CC(=O)N1CCCC1c1nnc(C(=O)Nc2ccc3c(c2)OCO3)s1 (centres unmarked) | USP51 | enzyme activity, inhibitor |  | 1 µM | 2.6 ± 0.6%
COc1cc(OC)c(F)c(/C=C/c2cnc3ccn(S(=O)(=O)c4cn(CCF)cn4)c3n2)c1F | PDGFRB (Homo sapiens, UniProt P09619) |  |  | 100 nM | 3.1%
COc1c(C2CC(=O)Nc3c2ncn3-c2cccc(C(F)(F)F)c2)cc2c(c1OC)OCO2 (centres unmarked) | USP51 | enzyme activity, inhibitor |  | 1 µM | 8.4 ± 2.6%
CC(=O)C12NC(C)(C)CC1(C)C(=O)C1=C2c2c(c3c4n2C(C)(C)CC2=C4C4(CC(C)(C)NC(C)(C4)C2=O)CC3(C)C)C(=O)C(C)(C)N1 (single isomer, unassigned; (-)) | CACNA1H (Homo sapiens, UniProt O95180) | ion current, antagonist, whole-cell patch clamp | HEK293T | 10 µM | 2.77 ± 0.05%
C[Si]1(C[C@H](CN)CC(=O)O)CCCC1 | HRH3 (Homo sapiens, UniProt Q9Y5N1) | ligand displacement, radioligand |  | 70 µM | 0%
Cl.Cl.N[C@@H](C(=O)N1CCCC1)C1CCN(c2nccc3c(-c4ncc(Cl)cc4Cl)cccc23)CC1 | PADI4 (Homo sapiens, UniProt Q9UM07) | enzyme activity, inhibitor |  | 80 µM, together with: Ca2+ 0.4 mM | 82.9% and 57.5% and 54.6%
CCOC(=O)c1cn[nH]c1S(=O)(=O)NCc1ccc(OC)c(OC)c1 | USP51 | enzyme activity, inhibitor |  | 1 µM | 0%

Structure (SMILES) | target | assay | system | conditions | inhibition
Cc1ccc(CNC(=O)[C@H](CCc2ccccc2)NC(=O)[C@H](CC(=O)NCC(C)(C)C)NC(=O)c2ccc(OCc3ccccc3)cc2)cc1 | PLG | enzyme activity, inhibitor |  | 100 µM | -13%
CCn1cc(C(=O)O)c(=O)c2c(N)c(F)c(NC3CCCCC3)cc21 | BCKDK (Homo sapiens, UniProt O14874) | kinase activity |  | 0.1 µM, together with: ATP at Km | -33.3%
O=C(O)c1cccc(-c2ccccc2O[C@@H]2O[C@H](CO)[C@H](O)[C@H](O)[C@H]2O)c1 | Adhesin FmlH lectin domain | binding to desialylated bovine submaxillary mucin, inhibitor, ELISA competition | UPEC UTI89 | 1 µM | 22.9 ± 5.1%
COc1cc(C=C2SC(=NC(C)=O)NC2=O)cc(OC)c1OC(C)=O | USP51 | enzyme activity, inhibitor |  | 1 µM | 23.6 ± 4.3%
COc1cc(-c2cn(C)c(=O)c3cnccc23)cc(OC)c1CN(C)C | Bromodomain-containing protein 3, BD1 (BRD3, Homo sapiens, UniProt Q15059) |  |  | 1 µM | 3.35%
CN(Cc1ccc(/C=C/C(=O)NO)cc1)CC12CC3CC(CC(C3)C1)C2 | human EP2 receptor | agonist radioligand binding |  | 0.05 µM | 0%
O=C1c2sc(-c3ccc(N4CCC(CO)CC4)nc3F)nc2CCN1c1cccnc1 | sigma receptor, non-selective (human) | radioligand binding, BioPrint binding panel |  | 1 µM, together with: agonist radioligand | 1%
Cc1ccc(-c2nn(-c3ccc(S(C)(=O)=O)cc3)cc2C=NN=c2[nH]c(-c3ccc(Br)cc3)cs2)cc1 (mixture of isomers) | PTGS1 | enzyme activity |  | 1 µM | 31.5%
COc1cc(NS(=O)(=O)c2ccc(NC(=O)c3ccccc3I)cc2)nc(OC)n1 | USP51 | enzyme activity, inhibitor |  | 1 µM | 19.6 ± 3.8%
CC1Cc2ccccc2N1C(=O)CN1CCN(c2ccccc2)CC1 (centres unmarked) | HTR5A (Homo sapiens, UniProt P47898) | radioligand binding |  | concentration not given, together with: [3H]LSD | 12.7%
CS(=O)(=O)c1ccc(-n2cc(C=NN=c3[nH]c(-c4ccc(Br)cc4)cs3)c(-c3ccc(Br)cc3)n2)cc1 | PTGS1 | enzyme activity |  | 0.01 µM | 8.33%
O=C(Nc1ccc(OCc2cc(C(=O)NCCc3ccccc3)no2)cc1)c1ccc(Cl)cc1 | USP51 | enzyme activity, inhibitor |  | 1 µM | 17.1 ± 6.2%
CC(C)Cn1c(SCC(=O)N2CCc3ccccc3C2)nc2cc(Cl)ccc2c1=O | ADRA2C (Homo sapiens, UniProt P18825) | ligand displacement, radioligand |  | 10 µM | -5%
C[C@@H](O)[C@H](NC(=O)c1ccc(OCc2ccccc2)cc1)C(=O)N[C@@H](CCc1ccccc1)C(=O)NCc1ccccc1Cl | PLG | enzyme activity, inhibitor |  | 100 µM | -11%
Cc1[nH]nc2c1N=C(c1ccccc1Cl)c1cnc(N3CCOCC3)cc1N2 | BDKRB1 (Homo sapiens, UniProt P46663) | cell-free assay |  | 10 µM | 5%
COc1ccc(-c2ccc(CNCCc3ccc(S(N)(=O)=O)cc3)o2)cc1Cl | DRD2 (Homo sapiens, UniProt P14416) | enzyme activity, inhibitor |  | 10 µM | 13.3%
CS(=O)(=O)c1ccc(-n2cc(C=NN=c3[nH]c(-c4ccc(Br)cc4)cs3)c(-c3ccc([N+](=O)[O-])cc3)n2)cc1 (mixture of isomers) | PTGS1 | enzyme activity |  | 0.01 µM | 1.93%
C=CCNC(=O)[C@H](CCc1ccccc1)NC(=O)[C@H](CC(=O)NCC(C)(C)C)NC(=O)CCc1ccccc1 | PLG | enzyme activity, inhibitor |  | 100 µM | -15%
C[Si](C)(C)C[C@@H](CN)CC(=O)O | Interleukin-6 receptor subunit alpha (IL6R, Homo sapiens, UniProt P08887) | binding, radioligand binding |  | 75 µM | 5%
Cc1nc2c(F)cc(-c3nc(Nc4ccc(CNC(=O)CCCCCCC(=O)NO)cc4)ncc3F)cc2n1C(C)C | MLCK(h) human kinase | enzyme activity |  | 1 µM | 64%
O=C(N[C@@H](CCNC(=O)c1ccc([N+](=O)[O-])o1)c1nc2ccccc2[nH]1)c1ccc(-n2cnnc2)cc1 | STING1 (Homo sapiens, UniProt Q86WV6, H232R) | reporter gene, inhibitor, Lucia reporter | THP1-Dual | concentration not given, wild-type STING, together with: diABZI | inactive
COc1ccc(C(=O)Nc2cc3c(cc2C#N)OCO3)cc1S(=O)(=O)NCc1ccco1 | USP51 | enzyme activity, inhibitor |  | 1 µM | 35.1 ± 11.6%
C/C=C/C(=O)Nc1ccc2nc(NCCCCCN(C)C)nc(NCCCCCCN(C)C)c2c1 | SETD2 | enzyme activity, inhibitor, radiometric |  | 50 µM | 95%
CS(=O)(=O)c1ccc(-n2cc(C=NN=c3[nH]c(-c4ccc([N+](=O)[O-])cc4)cs3)c(-c3ccc([N+](=O)[O-])cc3)n2)cc1 | PTGS1 | enzyme activity |  | 100 µM | 88.4%
CN(C)C/C=C/C(=O)Nc1ccc2nc(NCCCCCN(C)C)nc(NCCCCCCN(C)C)c2c1 | SETD2 | enzyme activity, inhibitor, radiometric |  | 10 µM | 89%
CCOC(=O)CCCCC1NCCc2cc(O)c(O)cc21 (centres unmarked) | MAL12 | enzyme activity, inhibitor |  | 100 µM, DMSO solvent, together with: pNPG substrate | 18.1 ± 2.51%

For quick reference, copied from above:
Structure (SMILES) | target | assay | system | conditions | inhibition
Cc1cc(C)n(Cc2c(O)ccc3ccc(=O)oc23)n1 | MAL12 | inhibitor |  | 25 µM | 20.2%
C[Si]1(C[C@H](CN)CC(=O)O)CCCC1 | HRH3 (Homo sapiens, UniProt Q9Y5N1) | ligand displacement, radioligand |  | 70 µM | 0%
Nc1ccc(O[C@@H]2O[C@H](CO)[C@H](O)[C@H](O)[C@H]2O)cc1 | Adhesin FmlH lectin domain | binding to desialylated mucin, ELISA competition | UPEC UTI89 | 10 µM, together with: desialylated bovine submaxillary mucin | 9.8 ± 3.9%
C[C@@H](O)[C@H](NC(=O)c1ccc(OCc2ccccc2)cc1)C(=O)N[C@@H](CCc1ccccc1)C(=O)NCc1ccccc1Cl | PLG | enzyme activity, inhibitor |  | 100 µM | -11%
CS(=O)(=O)c1ccc(-n2cc(C=NN=c3[nH]c(-c4ccc(Br)cc4)cs3)c(-c3ccc([N+](=O)[O-])cc3)n2)cc1 (mixture of isomers) | PTGS1 | enzyme activity |  | 0.01 µM | 1.93%
COc1cc(NS(=O)(=O)c2ccc(NC(=O)c3ccccc3I)cc2)nc(OC)n1 | USP51 | enzyme activity, inhibitor |  | 1 µM | 19.6 ± 3.8%
O=C1c2sc(-c3ccc(N4CCC(CO)CC4)nc3F)nc2CCN1c1cccnc1 | sigma receptor, non-selective (human) | radioligand binding, BioPrint binding panel |  | 1 µM, together with: agonist radioligand | 1%
